Assay results collected from several papers.
“And” joins repeats or separate records; there may be more than shown. ± gives the spread as reported.
FGFR2: Fibroblast growth factor receptor 2 (FGFR2, Homo sapiens, UniProt P21802)
Chain of UniProt P21802 (whole entry, looked up): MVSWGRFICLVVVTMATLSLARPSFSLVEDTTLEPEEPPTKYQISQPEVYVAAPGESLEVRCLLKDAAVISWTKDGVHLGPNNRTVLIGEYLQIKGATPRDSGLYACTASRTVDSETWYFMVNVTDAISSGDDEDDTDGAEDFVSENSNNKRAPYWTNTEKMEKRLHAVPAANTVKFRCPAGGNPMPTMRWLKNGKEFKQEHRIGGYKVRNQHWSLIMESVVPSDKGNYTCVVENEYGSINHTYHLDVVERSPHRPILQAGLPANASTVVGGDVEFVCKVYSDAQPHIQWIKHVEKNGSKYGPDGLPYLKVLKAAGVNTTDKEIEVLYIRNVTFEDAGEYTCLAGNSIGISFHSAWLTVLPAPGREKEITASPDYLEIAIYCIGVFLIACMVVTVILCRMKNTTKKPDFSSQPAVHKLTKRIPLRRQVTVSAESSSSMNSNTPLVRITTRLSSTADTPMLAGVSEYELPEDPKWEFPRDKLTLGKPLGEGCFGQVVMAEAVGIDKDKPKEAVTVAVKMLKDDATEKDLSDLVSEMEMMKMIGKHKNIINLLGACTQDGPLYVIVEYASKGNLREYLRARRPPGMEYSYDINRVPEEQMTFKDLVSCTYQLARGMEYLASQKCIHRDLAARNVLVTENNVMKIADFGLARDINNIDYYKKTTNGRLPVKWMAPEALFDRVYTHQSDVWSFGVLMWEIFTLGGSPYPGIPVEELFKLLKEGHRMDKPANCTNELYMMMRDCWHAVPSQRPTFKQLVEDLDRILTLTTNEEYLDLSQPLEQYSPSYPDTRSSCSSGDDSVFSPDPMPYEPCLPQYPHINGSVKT
CDK2 with cyclin A2: Cyclin-dependent kinase 2, with cyclin A2 (CDK2, Homo sapiens, UniProt P24941)
CDC42BPA: Serine/threonine-protein kinase MRCK alpha (CDC42BPA, Homo sapiens, UniProt Q5VT25)
Chain of UniProt Q5VT25 (whole entry, looked up): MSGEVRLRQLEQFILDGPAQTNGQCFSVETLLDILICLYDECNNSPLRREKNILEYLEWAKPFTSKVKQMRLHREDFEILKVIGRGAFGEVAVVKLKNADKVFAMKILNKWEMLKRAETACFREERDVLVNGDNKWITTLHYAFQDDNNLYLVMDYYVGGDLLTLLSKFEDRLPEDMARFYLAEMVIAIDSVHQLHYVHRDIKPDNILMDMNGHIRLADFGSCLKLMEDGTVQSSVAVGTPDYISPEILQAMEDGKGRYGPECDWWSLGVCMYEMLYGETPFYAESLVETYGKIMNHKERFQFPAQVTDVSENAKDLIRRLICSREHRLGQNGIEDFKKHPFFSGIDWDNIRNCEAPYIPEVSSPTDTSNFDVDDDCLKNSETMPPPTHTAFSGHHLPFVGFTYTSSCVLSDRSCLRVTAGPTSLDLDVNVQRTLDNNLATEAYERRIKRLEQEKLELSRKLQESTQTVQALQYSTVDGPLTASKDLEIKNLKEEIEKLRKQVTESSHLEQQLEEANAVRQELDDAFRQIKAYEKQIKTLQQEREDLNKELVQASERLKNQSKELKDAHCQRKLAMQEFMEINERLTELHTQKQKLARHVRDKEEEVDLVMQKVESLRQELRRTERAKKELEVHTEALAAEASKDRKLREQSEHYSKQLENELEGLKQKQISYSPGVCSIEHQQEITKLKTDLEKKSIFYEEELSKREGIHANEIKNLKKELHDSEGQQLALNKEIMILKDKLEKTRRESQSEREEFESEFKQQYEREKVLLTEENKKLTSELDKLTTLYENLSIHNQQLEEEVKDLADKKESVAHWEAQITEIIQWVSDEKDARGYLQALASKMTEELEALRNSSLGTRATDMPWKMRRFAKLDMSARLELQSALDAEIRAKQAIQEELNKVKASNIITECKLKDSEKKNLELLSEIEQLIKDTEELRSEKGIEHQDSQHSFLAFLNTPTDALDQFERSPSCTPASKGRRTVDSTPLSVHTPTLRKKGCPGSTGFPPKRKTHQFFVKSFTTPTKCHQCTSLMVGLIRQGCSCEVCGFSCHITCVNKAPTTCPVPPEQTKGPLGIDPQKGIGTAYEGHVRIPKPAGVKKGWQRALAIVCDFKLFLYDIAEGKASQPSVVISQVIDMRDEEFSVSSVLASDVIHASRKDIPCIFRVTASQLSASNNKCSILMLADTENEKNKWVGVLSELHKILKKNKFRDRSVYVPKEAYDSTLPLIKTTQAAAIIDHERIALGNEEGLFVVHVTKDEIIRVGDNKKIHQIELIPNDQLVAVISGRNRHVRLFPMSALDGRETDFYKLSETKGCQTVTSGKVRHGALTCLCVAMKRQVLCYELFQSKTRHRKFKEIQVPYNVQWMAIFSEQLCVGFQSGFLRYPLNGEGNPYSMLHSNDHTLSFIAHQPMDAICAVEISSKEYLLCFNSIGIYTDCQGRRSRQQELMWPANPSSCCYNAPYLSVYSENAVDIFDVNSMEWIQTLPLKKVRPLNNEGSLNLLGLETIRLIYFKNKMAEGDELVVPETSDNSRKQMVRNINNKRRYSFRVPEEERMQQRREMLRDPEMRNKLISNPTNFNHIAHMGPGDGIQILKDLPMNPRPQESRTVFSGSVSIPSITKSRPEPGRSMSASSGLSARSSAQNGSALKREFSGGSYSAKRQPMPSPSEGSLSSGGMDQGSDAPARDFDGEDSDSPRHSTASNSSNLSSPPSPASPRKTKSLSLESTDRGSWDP
Genome polyprotein NS3 helicase domain: Genome polyprotein, NS3 helicase domain (Hepatitis C virus genotype 1b, UniProt Q9WMX2)
Chain of UniProt Q92626 (whole entry, looked up): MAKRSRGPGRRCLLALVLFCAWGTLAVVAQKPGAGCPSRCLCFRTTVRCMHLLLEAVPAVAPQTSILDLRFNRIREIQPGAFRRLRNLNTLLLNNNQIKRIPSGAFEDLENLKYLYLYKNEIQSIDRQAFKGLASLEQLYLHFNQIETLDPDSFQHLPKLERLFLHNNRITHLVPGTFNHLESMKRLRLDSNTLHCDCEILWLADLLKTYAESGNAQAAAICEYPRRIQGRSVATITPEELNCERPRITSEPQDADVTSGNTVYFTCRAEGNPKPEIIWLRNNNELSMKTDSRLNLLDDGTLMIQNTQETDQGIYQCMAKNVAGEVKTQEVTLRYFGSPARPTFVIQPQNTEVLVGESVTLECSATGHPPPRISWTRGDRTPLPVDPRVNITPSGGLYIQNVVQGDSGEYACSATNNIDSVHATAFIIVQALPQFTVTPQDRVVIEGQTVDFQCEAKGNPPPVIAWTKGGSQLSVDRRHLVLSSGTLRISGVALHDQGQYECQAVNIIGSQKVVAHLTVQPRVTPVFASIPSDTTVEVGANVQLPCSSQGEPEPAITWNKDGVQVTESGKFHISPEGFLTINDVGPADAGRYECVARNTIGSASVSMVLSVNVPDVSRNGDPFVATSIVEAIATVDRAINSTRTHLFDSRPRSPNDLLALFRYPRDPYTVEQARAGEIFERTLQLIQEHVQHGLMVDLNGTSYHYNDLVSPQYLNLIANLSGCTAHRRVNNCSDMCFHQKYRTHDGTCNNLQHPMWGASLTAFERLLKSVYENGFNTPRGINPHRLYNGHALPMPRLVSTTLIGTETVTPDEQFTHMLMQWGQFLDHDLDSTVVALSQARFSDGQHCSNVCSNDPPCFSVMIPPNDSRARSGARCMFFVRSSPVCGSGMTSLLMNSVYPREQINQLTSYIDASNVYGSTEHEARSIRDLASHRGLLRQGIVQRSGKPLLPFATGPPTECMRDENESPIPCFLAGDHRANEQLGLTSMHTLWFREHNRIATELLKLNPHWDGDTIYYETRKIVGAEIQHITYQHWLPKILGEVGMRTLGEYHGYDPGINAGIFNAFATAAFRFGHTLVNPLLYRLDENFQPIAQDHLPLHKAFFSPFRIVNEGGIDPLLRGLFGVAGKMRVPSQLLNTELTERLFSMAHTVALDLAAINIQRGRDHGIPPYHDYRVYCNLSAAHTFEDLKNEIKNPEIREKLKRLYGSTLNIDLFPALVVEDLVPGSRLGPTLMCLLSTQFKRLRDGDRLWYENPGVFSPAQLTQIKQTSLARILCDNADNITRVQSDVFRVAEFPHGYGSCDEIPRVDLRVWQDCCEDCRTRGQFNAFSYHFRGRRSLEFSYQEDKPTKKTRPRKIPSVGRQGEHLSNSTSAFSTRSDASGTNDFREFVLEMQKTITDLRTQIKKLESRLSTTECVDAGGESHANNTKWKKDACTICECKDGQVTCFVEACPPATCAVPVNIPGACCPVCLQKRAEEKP
Chain of UniProt Q9Y572 (whole entry, looked up): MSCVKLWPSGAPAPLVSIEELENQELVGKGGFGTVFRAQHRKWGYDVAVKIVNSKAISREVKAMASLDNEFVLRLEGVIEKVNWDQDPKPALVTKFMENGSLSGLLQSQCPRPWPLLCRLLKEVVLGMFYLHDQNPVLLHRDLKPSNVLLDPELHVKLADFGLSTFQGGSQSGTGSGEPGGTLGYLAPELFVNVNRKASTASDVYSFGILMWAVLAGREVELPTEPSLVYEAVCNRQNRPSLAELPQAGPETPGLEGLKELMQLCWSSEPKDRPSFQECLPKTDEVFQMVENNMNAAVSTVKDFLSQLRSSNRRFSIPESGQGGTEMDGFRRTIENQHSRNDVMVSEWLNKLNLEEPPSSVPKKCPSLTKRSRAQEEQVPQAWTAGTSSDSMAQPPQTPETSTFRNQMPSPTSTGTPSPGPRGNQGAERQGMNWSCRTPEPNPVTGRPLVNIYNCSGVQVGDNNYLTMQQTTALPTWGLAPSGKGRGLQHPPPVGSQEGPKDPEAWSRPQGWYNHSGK
Chain of UniProt Q8TDX7 (whole entry, looked up): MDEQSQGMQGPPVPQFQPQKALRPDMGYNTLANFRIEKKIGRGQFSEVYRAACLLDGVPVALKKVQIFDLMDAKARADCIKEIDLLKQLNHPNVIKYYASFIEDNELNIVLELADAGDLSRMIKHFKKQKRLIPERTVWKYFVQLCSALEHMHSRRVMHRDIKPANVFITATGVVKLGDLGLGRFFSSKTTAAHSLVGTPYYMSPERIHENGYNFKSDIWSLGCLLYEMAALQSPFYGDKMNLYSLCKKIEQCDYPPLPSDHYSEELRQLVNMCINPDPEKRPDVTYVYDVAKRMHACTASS

For Cc1cc(NC(=O)c2cccc(NC(=O)/C=C/CN(C)C)c2)ccc1Nc1nccc(-c2cccnc2)n1, the remaining activity was 0.037 (MAPK9 (Homo sapiens, UniProt P45984); enzyme activity, inhibitor; 4.938 µM, unit not given; relative to: vehicle).
C=CC(=O)N1CCC([C@@H]2CCNc3c(C(N)=O)c(-c4ccc(Oc5ccccc5)cc4)nn32)CC1 gave a remaining activity of 94.3 ± 0.3% (FGFR2; kinase activity, inhibitor, HotSpot radiometric; 100 nM, added: ATP 10 µM).
The remaining activity of C1=C/COCc2cc(ccc2OCCN2CCCC2)Nc2nccc(n2)-c2cccc(c2)COC/1 is reported as 94% (EGFR (Homo sapiens, UniProt P00533, T790M); concentration not given; relative to: untreated control).
With Cc1ccc(NC(=O)c2ccc(C)c(C(F)(F)F)c2)cc1C#Cc1nn(C2CCC(O)CC2)c2ncnc(N)c12 (stereo not drawn) the remaining activity was 87% (ERK2, human; 10 µM, added: 10 µM ATP).
CC#CC(=O)N1CCC[C@H]1c1nc(-c2ccc(C(=O)Nc3ccccn3)cc2)c2c(N)nccn12 gave a remaining activity of 99.3 ± 1.5% (FGFR2; kinase activity, inhibitor, HotSpot radiometric; 100 nM, added: ATP 10 µM).
COc1c(Nc2cc(C(F)(F)F)cc(C(F)(F)F)c2)c(=O)c1=O: “pseudo-first-order rate constant” 6.1 h⁻¹ (reaction with N-acetyl-lysine, HPLC-MS; pH 10.2, added: N-α-acetyl-lysine).
CN(C)CC#Cc1ccc2[nH]c3c(c2c1)-c1nc(N)ncc1CCC3 gave a remaining activity of 77% (TSSK2 (Homo sapiens, UniProt Q96PF2); kinase activity, inhibitor, radiometric; 1 µM, added: ATP at Km).
For CN(Cc1cc(C(F)(F)F)cc(C(F)(F)F)c1)c1nc2ccccc2c(=O)s1, “pseudo-first-order rate constant” read 0 h⁻¹ (reaction with N-acetyl-lysine, HPLC-MS; pH 10.2, added: N-α-acetyl-lysine).
CNC(=O)c1cc(Oc2ccc(NC(=O)Nc3ccc(Cl)c(C(F)(F)F)c3)cc2)ccn1 has a remaining activity of 18.6% (CDK2 with cyclin A2; kinase activity; 1000 nM).
Cc1cccc(NS(=O)(=O)c2cc(C(=O)Nc3ccccc3C(=O)N3CCOCC3)ccc2Cl)c1 has a Kd of over 100 µM (Cyclin-dependent kinase 2, with cyclin A (CDK2, Homo sapiens, UniProt P24941)).
CC(C)C[C@H](NC(=O)C[C@H](O)[C@H](CC(C)C)NC(=O)[C@H](Cc1c[nH]cn1)NC(=O)CNC(=O)[C@@H](NC(=O)[C@H](C)NC(=O)[C@H](Cc1c[nH]c2ccccc12)NC(=O)[C@H](CCC(N)=O)NC(=O)[C@@H](Cc1ccccc1)NC(=O)COCCOCCNC(=O)CCC(C(=O)O)N1CCN(CC(=O)O)CCN(CC(=O)O)CCN(CC(=O)O)CC1)C(C)C)C(N)=O (stereo partly drawn) [lutetium-177 labelled] has a tissue uptake of 2.7 ± 0.6 %ID (BALB/c nu/nu mice, female, carcass incl. GI tract contents; intravenous, 50 pmol, 1 h).
COc1cc(N2CCN(C)CC2)ccc1Nc1nc(N)n(C(=O)NCc2ccccc2S(=O)(=O)C(C)C)n1 has a remaining activity of 21% (CDC42BPA; enzyme activity; 10 µM; relative to: control).
Cc1cc(Nc2cc(N3CCN(C)CC3)nc(Sc3ccc(NC(=O)C4CC4)cc3)n2)[nH]n1 gave a remaining activity of 107% (NEK7 (Homo sapiens, UniProt Q8TDX7); kinase activity, KinaseProfiler; 0.03 µM, species human; relative to: control).
CC(C)Oc1cc(N2CCN(C)CC2)ccc1Nc1nc(N)n(C(=O)NCc2ccccc2S(=O)(=O)C(C)C)n1 has a remaining activity of 23% (CDC42BPA; enzyme activity; 10 µM; relative to: control).
The remaining activity of O=C(O)c1ccc(Nc2ncc3c(n2)-c2ccc(Cl)cc2C(c2c(F)cccc2F)=NC3)cc1 is reported as 105% (human CSK(h); kinase activity; 1 µM).
The remaining activity of O=C1COc2ccc(-c3ccc(F)cc3F)cc2N1Cc1noc(C2CCC2)n1 is reported as 100 ± 3.8% (UVRAG, with Beclin 1 (Homo sapiens, UniProt Q9P2Y5); UVRAG-Beclin1 interaction, NanoBRET; HEK293T; 100 µM, 24 h; relative to: DMSO).
O=C1NC(=O)/C(=C/c2ccc(-c3ccc(F)cc3O)o2)S1 has a remaining activity of 44% (BRSK2 (Homo sapiens, UniProt Q8IWQ3); enzyme activity; 10 µM).
The inhibition of CC[C@H]1CN2CCc3cc(OC)c(OC)cc3[C@@H]2C[C@@H]1C[C@H]1NCCc2cc(OC)c(OC)cc21 is reported as 2% (Genome polyprotein NS3 helicase domain; DNA binding, inhibitor; hepatitis C virus; 100 µM, added: Cy5-dT15 DNA).
Under “AST/ALT increased incidence”, CNCc1ccc(-c2[nH]c3cc(F)cc4c3c2CCNC4=O)cc1 is recorded as 33.3% (human patients; oral, 840 mg twice daily, all grades).
With COc1cc(-c2cncc3c2CN(C)Cc2cc(N4CCNCC4)ccc2-3)cc(OC)c1OC the remaining activity was 110% (HIPK2 (Homo sapiens, UniProt Q9H2X6); kinase activity; 1 µM, human enzyme, added: ATP 10 µM; relative to: DMSO control).
COc1ccc(F)cc1C(=O)NCc1ccc(-c2nn([C@@H](C)C(F)(F)F)c(N)c2C(N)=O)cc1 gave a remaining activity of 68.3 ± 1.9% (RIPK3 (Homo sapiens, UniProt Q9Y572); kinase activity, inhibitor, HotSpot radiometric; 1000 nM, added: ATP at Km).
The remaining activity of CNc1ncc2c(/C=C/C(=O)N3CCC(OC)CC3)nn(Cc3cccc(C(F)(F)F)c3)c2n1 is reported as 90% (PRKD1 (Homo sapiens, UniProt Q15139); kinase activity, inhibitor; 1 µM; relative to: untreated control).
With C=CC(=O)N1CCC[C@@H](n2nc(-c3ccc(Oc4ccccc4)cc3)c3c(N)ncnc32)C1 the remaining activity was 89.1% (EPHA3 (Homo sapiens, UniProt P29320); 0.1 µM).
For NC/C(=C\F)COc1cccc(Cn2c(=S)[nH]c(=O)c3[nH]cnc32)c1, the remaining activity was 96.1% and 94.9% (Peroxidasin homolog (PXDN, Homo sapiens, UniProt Q92626); enzyme activity, inhibitor, Amplex UltraRed; 1.25 µM; relative to: control).
COc1cc(Nc2ncc3c(n2)-c2ccc(Cl)cc2C(c2c(F)cccc2OC)=NC3)ccc1C(=O)O gave a remaining activity of 59% (PRKACA; kinase activity; 1 µM).
For COc1cc(F)ccc1-c1ncnc(Nc2cccc(C[S@](C)(=N)=O)c2)n1, the remaining activity was 98% (CDC42BPA; kinase activity; 10 µM, added: 10 µM ATP).
The remaining activity of C=CC(=O)N1CCC[C@@H](n2nc(-c3ccc(Oc4ccccc4)cc3)c3c(N)ncnc32)C1 is reported as 1.9 ± 0.3% (ERBB4 (Homo sapiens, UniProt Q15303); kinase activity, inhibitor, HotSpot radiometric; 100 nM, added: ATP 10 µM).
For CSc1ccc(C(=O)c2[nH]c(=O)[nH]c2C)cc1, the inhibition was 0% (Genome polyprotein NS3 helicase domain; DNA binding, inhibitor; hepatitis C virus; 100 µM, added: Cy5-dT15 DNA).
Cn1cc(-c2ccc(-c3cncc(Cl)c3N3CCC4(CCNC4=O)CC3)cc2)cn1: “log2 fold change” 1.23 (COLO 205; gene expression, microarray, measured: PLOD1 mRNA; concentration not given, 2 h; relative to: untreated cells).
The remaining activity of CC(=O)Nc1c(N)nc(SCC(=O)NN)[nH]c1=O is reported as 46.6% (CDK2 with cyclin A2; kinase activity; 500 nM).
For O=C(NC1CCC1)c1ccc2nc(-c3cccc(NS(=O)(=O)NCCN4CCCCC4)c3)cn2c1, the remaining activity was 82% (WNK1 (Homo sapiens, UniProt Q9H4A3); enzyme activity; 10 µM).
CC(=O)Nc1c(N)nc(SCC(=O)N/N=C/c2ccc([N+](=O)[O-])cc2)[nH]c1=O gave a remaining activity of 48.5% (CDK2 with cyclin A2; kinase activity; 500 nM).
With COc1cc(N2CCN(C)CC2)ccc1Nc1nc(N)n(C(=S)NCc2c(Cl)cccc2Cl)n1 the remaining activity was 0.6% (EIF2AK4 (Homo sapiens, UniProt Q9P2K8, S808G); enzyme activity; 10 µM; relative to: control).
